Results gathered from unrelated publications.
Each line is one published result; not all experiments were run side by side. Several values in a cell are separate wells, animals, samples, runs or records. Numbers after ± are the reported error.
UniProt P04062, sequence (whole entry, unmodified, looked up): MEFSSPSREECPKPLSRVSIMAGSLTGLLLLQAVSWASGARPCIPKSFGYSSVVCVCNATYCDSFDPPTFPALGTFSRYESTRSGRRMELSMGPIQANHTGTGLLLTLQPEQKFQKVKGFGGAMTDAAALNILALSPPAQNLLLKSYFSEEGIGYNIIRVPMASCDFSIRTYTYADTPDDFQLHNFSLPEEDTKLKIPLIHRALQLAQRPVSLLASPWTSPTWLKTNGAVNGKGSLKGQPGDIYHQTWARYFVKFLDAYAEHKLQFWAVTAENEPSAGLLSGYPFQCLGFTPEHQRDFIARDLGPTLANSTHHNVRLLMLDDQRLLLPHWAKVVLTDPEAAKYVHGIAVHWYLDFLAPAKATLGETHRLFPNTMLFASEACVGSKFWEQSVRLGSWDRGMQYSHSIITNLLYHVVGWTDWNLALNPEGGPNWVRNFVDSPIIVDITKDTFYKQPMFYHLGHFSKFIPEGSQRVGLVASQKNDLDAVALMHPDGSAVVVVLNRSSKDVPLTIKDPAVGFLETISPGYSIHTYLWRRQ

| Structure (SMILES) | target or system | test | system | setting | how to read | quantity | result |
| --- | --- | --- | --- | --- | --- | --- | --- |
| CN1CCCNC(=O)c2cccc(c2)C(=O)NCCCN(C)CCCNc2cccc3c2C(=O)c2cccc(c2C3=O)NCCC1 |  |  | mouse xenograft model | dose not given, day 10 |  | body weight | 24 g and 26 g and 27 g |
| CC(=O)N([O-])CCCCCNC(=O)CCC(=O)N([O-])CCCCCNC(=O)CCC(=O)N([O-])CCCCCN.[89Zr+4] |  | radio-TLC | aqueous buffer | 1 d, pH 7.2, 37 °C, 89Zr-labelled complex, added: FeCl3 100-fold excess |  | intact complex | 46.6 ± 0.6% |
| CCCCCCCN1C[C@H](O)[C@@H](O)[C@H](O)[C@@H]1CO | GBA1 (Homo sapiens, UniProt P04062, R534H) | inhibitor, 4MU-β-D-glucopyranoside |  | added: 4MU-β-D-glucopyranoside |  | IC50 | 700 µM |
| C=CC(=O)Nc1cc(Nc2nccc(-c3cn(C)c4ccccc34)n2)c(OC)cc1N(C)CCNC |  | storage stability | human plasma | 2 h, on ice, LLOQ level |  | recovery | 102% |
| O=S(=O)(NCc1ccncc1)c1ccc(C2CCCCC2)cc1 |  |  | CK mouse | 0.3 mg/kg | reference: vehicle | body weight change | 11 ± 7 g |
| Cc1cccc(O[C@H]2CCC[C@@H](C(C)CNCc3ccncc3)C2)c1 (relative stereo) |  |  | C57BL/6 mouse adult female | 50 mg/kg, one month, toxicity study |  | body weight | 28 g |
| O=C(NS(=O)(=O)c1cccs1)c1cc2ccccc2n1Cc1ccc(Br)c2ccccc12 |  |  | KM mouse, chronic hyperuricaemia model | dose not given, day 30 |  | body weight | 40.8 g and 38 g and 41.4 g and 40.2 g and 40 g and 39.2 g |
| C#CCOCCOCCOCCOCCn1cc(C(ONC(=O)/C=C/C(C)=C/C2(C)Oc3cc(N(C)C)ccc3C2=O)(c2ccc(C)cc2)c2ccc(C)cc2)nn1 (stereo not drawn) |  | HPLC | aqueous buffer, 20% acetonitrile | concentration not given, 0 min, pH 3 | reference: initial prodrug amount | release from prodrug hydrolysis | 100% |
| O=c1c2sccc2n(CC2COc3ccccc3O2)c(=O)n1O (stereo not drawn) |  |  | Caco-2 | 10 µM |  | Papp A→B | 13.1 ×10⁻⁶ cm/s |
| CNc1cc(C)c(C(N)=O)cn1 |  |  | Han Wistar rats, male, plasma | oral, 30 mg/kg, 4.00 h |  | concentration at time | 33.2 µM |
| CCc1ccc2nc(N(CCN(C)C)C(=O)c3ccc4ncsc4c3)sc2c1 | Trypanosoma cruzi | reporter mRNA translation, inhibitor, measured: capped polyadenylated Renilla luciferase mRNA | cell-free extract | concentration not given | reference: control RNA | relative translation | 105% |
| O=C(Nc1cnccc1-c1ccc([18F])cc1)c1ccnc(NC(=O)C2CC2)c1 |  | ex vivo biodistribution, gamma counting | GSK-3β overexpressing transgenic mouse, late stage, caudate nucleus | intravenous, 1.26 MBq/animal, 120 min post-injection |  | mean SUV | 0.12 |
| CN(C)S(=O)(=O)c1ccc(S(=O)(=O)N2CCC(n3c(=O)[nH]c4ccccc43)CC2)cc1 |  |  | mouse | dose not given, day 1 | reference: day 0 | relative body weight | 96% and 94% and 97% and 92% and 95% |
| CN1CCC[C@]1(C)/C=C/S(=O)(=O)NC(=O)Nc1c2c(cc3c1CCC3)CC=C2 |  |  | human, plasma | oral, 12.5 mg twice daily of parent drug, day 14, metabolite of dosed drug |  | Cmax at second steady-state dose | 6500 ng/mL |
| Cc1nc(N)nc2c1C(=O)N[C@@H](c1ccc(F)cc1-c1cccc(O[11CH3])n1)C2 |  | ex vivo biodistribution | mice, U87 subcutaneous xenograft, brain | 60 min post-injection, baseline, vehicle pre-treatment |  | SUV | 2.1 ± 0.2 |
| CCn1nc(C)c(CN2CCCC(C(=O)c3cccc(OC(C)C)c3)C2)c1C (stereo not drawn) | Trypanosoma cruzi | reporter mRNA translation, inhibitor, measured: capped polyadenylated Renilla luciferase mRNA | cell-free extract | concentration not given | reference: control RNA | relative translation | 112% |
| CCC1CNC(CC)CN(C(C(=O)[O-])c2ccc(C(=O)[O-])cc2)C(CC)CN(CC(=O)[O-])C(CC)CN1.[Mn+2] (stereo not drawn) |  | ICP-MS | BALB/c mouse, brain | intravenous, 0.05 mmol/kg, 30 min, without anaesthesia |  | Mn content | 0.64 ± 0.02 µg/g |
| COc1cccc(OC)c1-c1cc(C(=O)NC2(C(=O)O)C3CC4CC(C3)CC2C4)nn1-c1ccc(C(=O)N(C)CCCN(C)C(=O)[C@H](CCCCNC(=O)[C@H](CC(C)C)NC(=O)C2OC2C(=O)O)NC(=O)CN2CCN(CC(=O)[O-])CCN(CC(=O)[O-])CCN(CC(=O)[O-])CC2)cc1C(C)C.[177Lu+3] (mixture of isomers) |  |  | mouse, HT-29 xenograft, brain | 4 h post injection |  | tissue uptake | 0.05 %ID/g |

Repeated from above:
| Structure (SMILES) | target or system | test | system | setting | how to read | quantity | result |
| --- | --- | --- | --- | --- | --- | --- | --- |
| CCC1CNC(CC)CN(C(C(=O)[O-])c2ccc(C(=O)[O-])cc2)C(CC)CN(CC(=O)[O-])C(CC)CN1.[Mn+2] (stereo not drawn) |  | ICP-MS | BALB/c mouse, brain | intravenous, 0.05 mmol/kg, 30 min, without anaesthesia |  | Mn content | 0.64 ± 0.02 µg/g |
| CN1CCC[C@]1(C)/C=C/S(=O)(=O)NC(=O)Nc1c2c(cc3c1CCC3)CC=C2 |  |  | human, plasma | oral, 12.5 mg twice daily of parent drug, day 14, metabolite of dosed drug |  | Cmax at second steady-state dose | 6500 ng/mL |
